# Measured values gathered from unrelated publications.
# Parts stem from different laboratories: compare values within a part only.

# Set 1
# Target: Centromere-binding protein 1, full length, His-tagged (CBF1, Saccharomyces cerevisiae, UniProt P17106, residues 1-351)
# UniProt P17106, sequence (whole entry, looked up): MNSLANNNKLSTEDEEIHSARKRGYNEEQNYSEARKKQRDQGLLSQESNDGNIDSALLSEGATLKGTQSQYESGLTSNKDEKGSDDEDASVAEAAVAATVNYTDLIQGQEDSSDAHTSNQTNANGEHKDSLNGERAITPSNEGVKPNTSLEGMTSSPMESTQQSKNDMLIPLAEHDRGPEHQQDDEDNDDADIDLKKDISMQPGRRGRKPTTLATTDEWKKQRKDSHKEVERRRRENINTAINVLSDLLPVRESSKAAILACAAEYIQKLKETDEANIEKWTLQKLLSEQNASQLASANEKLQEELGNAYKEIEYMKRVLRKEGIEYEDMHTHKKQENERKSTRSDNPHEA
# Technique: competition protein-binding microarray
# Form: double-stranded DNA, one strand shown
# Sample: in vitro
# Tested at: 2 µM
# Setting: whole 60-bp probe, lowest competitor level
# With: Pho4 competitor, 0.05 µM
# Reading: higher = stronger binding
# Shared flanks, not repeated: … GTCTTGATTCGCTTGACGCTGCTG
Strand,fluorescence intensity [a.u.]
GGGAATCCAGGCAGACACGTGCTACCGAGACTTTAA,1470
TTTTAGCCCCACCTCCAGGTGATGCTTATTTGCTAG,68.5
CCTCGTCTGCTCTTCCACGTTCAGATGTTCCCTTGA,62
AGAACCGTTAAATTCCCCGTGCTTTCTCGCATTAAG,114
AGAATTTGTCAACAACATGTGGGCTTGGGATAAGCC,88.5
GCGTCTGCTCCCCATCACGATACCCGAGGTGCAGGC,88.7
CCTCCGTACCACCCAAACGTGTAGTTTTGATGTTTT,80.2
ATTTTAACTTCATCTACCGTGATGGCTATTACCACC,75.7
GGAGATAGCCTTTTGAGCGTGATGGCTCTTTCTATA,66.8
CGGGGTTAAGTTTGGTCTGTGGGTGGCTTGCAGCAG,63.1
GACCAGTGGCCCCGTCACAATATTCTCGGAAGCTAA,56.9
GTCTTGTCTCATTTTCACGTGCGATTCCCCACTTCA,583
GTCTTGTCTCATTGAAGAGTGGGTGTCCCCACTTCA,85.2
CATACCCAACCTTTTCACGTGCCCTAAGATATTTGT,1210
CATACCCAACCTTGTTGAGTGGGTGAAGATATTTGT,75.7
TCAAACCTGGCTCACCACGTGGGACATAAGCATATG,918
TGGGAATCCGCTTGGCGCGTGATGGAGCCAATGAAC,155
CATACCCAACCTTTTCACGTGTGGTAAGATATTTGT,692
CTTCTGTAAATTTGGCTCGTGGGTGGACGCGCCCCG,111
TTTTCCGGCAAGAGTCGCGTGATGGTTTTTTCTAAT,348
TTTTGCTAAAATGAACTTGTGTCGCAAATTCCGTTC,73.2
CGGGGTTAAGTTTGTCACTGCACTTGCTTGCAGCAG,66.3
AAAATCTGCGATTGTCATGCCTCCAAGACTGATGTT,68.7
AAATTACTAAGTTGTCAAGTGGGTGACGCCGTATGA,72.3
CACCCCAGGAGTCTTCACATGAGCAGGAAGAATTTG,86.6

# Set 2
# Target: Histone acetyltransferase KAT6A, both winged helices, GST fusion (KAT6A, Homo sapiens, UniProt Q92794, residues 1-181)
# Technique: protein binding microarray
# Form: double-stranded DNA, one strand shown
# Sample: in vitro
# Tested at: not given
# Setting: 8-mer, flanks averaged, mean of 2 arrays, mostly near background
# Reference: not given
# Reading: higher = stronger binding
# Target sequence (chain): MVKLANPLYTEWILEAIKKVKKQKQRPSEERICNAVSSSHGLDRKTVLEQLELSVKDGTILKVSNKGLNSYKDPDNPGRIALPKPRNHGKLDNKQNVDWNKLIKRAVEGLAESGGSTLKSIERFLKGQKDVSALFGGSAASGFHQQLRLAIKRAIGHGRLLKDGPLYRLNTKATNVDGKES
Strand,E-score
ATGACACC,-0.0376
ACCGAGTG,0.0196
GAGGTGTA,-0.0844
CCGTGGGA,0.0625
ATGGAGAA,-0.0513
TGAAAAAA,-0.0117
ACAATTGG,-0.17
AGTAACAC,-0.0331
CACACGGA,0.234
GCGCCCAC,0.0983
AGTAAGGG,-0.0638
AGATATCT,-0.159
CCGCCCGC,0.316
AAGGAGTC,-0.231
AAAGTCAC,-0.0721
ACCCGTAG,0.173
CTCCAAGA,-0.207

# Set 3
# Target: RNA binding protein fox-1 homolog 2, RRM domain, GST-SBP tag (RBFOX2, Homo sapiens, UniProt O43251-10, residues 100-194)
# Technique: RNA Bind-n-Seq
# Form: RNA
# Sample: in vitro
# Tested at: 365 nM
# Setting: natural RNA segment, single round, ends assumed
# Reference: no-protein control
# Reading: higher = stronger binding
# Shared flanks, not repeated: GGGAGUUCUACAGUCCGACGAUC … UGGAAUUCUCGGGUGCCAA
# Construct (chain): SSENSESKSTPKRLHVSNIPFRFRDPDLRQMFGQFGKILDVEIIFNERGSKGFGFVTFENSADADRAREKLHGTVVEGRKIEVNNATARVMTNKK
Strand,RBNS enrichment (R)
AGGAAUUUCCUGAGUUUGCAGGAGACAUGAGAGCAGUUUUUAGCGAGUAUUUUAGUGGGAAGUUGCCAACUUUUUAAGAAUGAGCAGUUGACAAGGGCCAGAGCCUGUCC,2
CAGCUCUAGGGCCUCAGUCUGGAGUGGGAUAGGAGCAGUGAGUGACAAAGCCUCUGAAAGAUGCAUCAUCUCUUCCUCACACCCAUUUAGUGGGGGAUGGGUCCUCUAGA,0.331
CCACGAUGAUUUUCCUCUCUUUGAUGUACUUCAAGUGCAACUCAAAACUAUAUCUGCAGGGAUGAAUCUGUAACUUAAAUUGGGCCAAUCAGAAUUGUUAUCUUUGUUCA,0.427
UUCCUUUUCUACCCUUUCUAGUUCAUUUUCCAAGGUAGCUGUGAUAAAGCAUGACAUAAAAGCCCAAUUCAGAUCCUACUAAUAAAACAAGCUCCAAUGUAUUAUGGAAA,1.49
UAAAGAACUGAACCCUAAAUCAGCUCCCACUAAUGAAACCCUGCUUUCCUUGUAUCUUUUAAACUCAGUUCUGCAUCCAACUUGAGAAGAAAAAAAGCUUCUUUCCAUAU,3.48
CAGUCUUGUUUUGGCAUCAUCCUCAUCAUGUUGUAUUCCAGCUUCUUAAGUGGAAGGAAAAGAGUGCUGAGAAAUGGCUCUGUAUAAUCUAUGGCUAUCCGAAUUCUCUG,0.376
UUCCCUAUGCCAACUCACGACUCCUACAGGUACUAGUCACUCAUCUACCAGAUUCUGCCUAUGUAAAAUGAAUUGAAAAACAAUUUUCUGUAAUCUUUUAUUUAAGUAGU,0.432
AUUUCUGUCCCUGAUGAAAGACUGCCCAUUCACCUUGGUUCCCUCCCCUUGUGGCUAAACGAAAGCAAAUGUCCGGAAGUCUUGAGAAGCUGUGUCGUGUUCCCUGUGGA,0.747
CAAUACUUAUCUAAAACUAUACAUUUAGAAUGGAGCAGUUUAAUACUAGAUCUCAGAAGUUUUGAAAAAUAGCAAAGAAGACUGGAUUUGGAAAGCAUGGUCUACAAUUG,9.78
UGGCCUAGCCGCCCGUGACUCUCACACUGUCUCCUGCAUGACGGGUGGCGCCUCCCGCAGCUUCCCUUCUCUCUCCAGUGCUGCCCGCUGUGUCUAGCAGCCUCUAGGAU,2.45
ACCCUGCUUACUAGGUUGUUCAUUCAUCCGUUUCUUGAGAGCUCCUAACUCCUGCAUCUCCUCAAGGGUGUUUCCUCCCUCCUCCCACAGCCUCAAGGACACACUUUCCA,0.683
GGUAGGACUGGCUUCUGGCAGGGACAGGGCCUAUCCUAAGUACCUUCACCCAGUAUCACAAAGAUGACUUUGUGGGAGGUACUUAGAAUGGGCUAAGGUGGACAGGCUGU,0.339

# Set 4
# Target: Fragile X messenger ribonucleoprotein 1, C-terminal low-complexity region (Fmr1, Mus musculus, UniProt P35922)
# Technique: RNA Bind-n-Seq
# Form: RNA
# Sample: in vitro
# Tested at: 200 nM
# Setting: whole 134-nt RNA, ends assumed
# With: 150 mM LiCl
# Reference: input library
# Reading: higher = stronger binding
# Library: 7-deaza-guanosine replaces G
# Shared flanks, not repeated: GGGAGUUCUACAGUCCGACGAUC … UGGAAUUCUCGGGUGUCAAGG
Strand,log2 enrichment
CCUGUGCUACACAUCGUAUGUACCGAAUCGGUUUUUUUGGUUUUUUUGGUUUUUUUGGGGAAAGUAUUAUGUUACGCCGUUCGGAUCUGC,-1.29
UACUCUCUCGGGGCUGGAAGCUUCCUGACUGAAGAUCUCUCUGCACUUGGGGUUCUUUCUAGAACAUUUUCUAGUCCCCCAACACCCUUU,-0.515
UCCUGUGCUACACAUCGUAUGUACCGAAUCAAAUUUUUUUAAAUUUAAAUUUUUUUAAAAAAGUAUUAUGUUACGCCGUUCGGAUCUGCA,-2.4
UGGGAGGUGGAUUUUGUUUAUUUUUUUAGCUCAUUUCCCGGGGUGGGAAUUUUUUUUUAAUAUGUGUCAUGAAUAAAGUUGUUUUUGAAA,-0.129
ACCAUGCAGAUGGGCAUCUUUGGGAAGUGGGGCAAGGGGGGGAUAGGGAGGGGGGUAACACUUUGGGAACAGGUGGUCCCAGGUCGUUUC,1.41
CAAGUCCUGUGCUACACAUCGUAUGUACCGAAUCGGAAAGGUUUUUGGAAAAAGGAAAGUAUUAUGUUACGCCGUUCGGAUCUGCACUUC,-1.19
AAGUCCUGUGCUACACAUCGUAUGUACCGAAUCGGAAAAAGGUUUGGAAAAAAAGGAAAGUAUUAUGUUACGCCGUUCGGAUCUGCACUU,-2.65
CAAGUCCUGUGCUACACAUCGUAUGUACCGAAUCGGGGAAAGGGAAAGGGAAAGGAAAGUAUUAUGUUACGCCGUUCGGAUCUGCACUUC,-0.447
CAAGUCCUGUGCUACACAUCGUAUGUACCGAAUCGGAGGAAAAAAAGGUUUUUGGAAAGUAUUAUGUUACGCCGUUCGGAUCUGCACUUC,-1.45
GCAGGAAGUAAAAACAAAUGGAAAUGCUUCGGAUCGUGGCAGGGGUGGGGGUUGCUAAGGAAAGGGUGGGAUGGGAGUGGGUAAAGAGUU,1.38
UGGGAGGUGGAUUUUGUUUAUUUUUUUAGCUCAUUUCCAGGGGUGGGAAUUUUUUUUUAAUAUGUGGCAUGAAUAAAGUUGUUUUUGAAA,0.496

# Mixed results
Substance,target,assay,system,conditions,scale,endpoint,value
"PhoQ, residues 284 288 289 292 302 303 SSYNSA","PhoP, residues 12 14 15 18 19 YHFSH (Escherichia coli, UniProt P23836)","Sort-seq, measured: YFP reporter",E. coli,"PhoQ-PhoP variant library, with: 10 µM Mg2+","reference: high Mg2+ state, higher = stronger signaling",fold induction,8.64

# Some of these lines once more (set 2):
Strand,E-score
GAGGTGTA,-0.0844
CCGTGGGA,0.0625
ATGGAGAA,-0.0513
TGAAAAAA,-0.0117
ACAATTGG,-0.17
